Assay results gathered from unrelated publications.
Lines come from different studies, so protocols differ. ± marks the error that the study gave. In brackets after ≈: the same amount, converted by molar mass.

| Structure (SMILES) | organism | effect on | technique | strain | setting | MIC [µg/mL] |
| --- | --- | --- | --- | --- | --- | --- |
| N=C(N)NCCC[C@@H]1NC(=O)[C@H](CCCNC(=N)N)NC(=O)[C@@H](C(c2ccccc2)c2ccccc2)NC(=O)[C@H](Cc2c[nH]c3ccccc23)NC(=O)[C@@H](C(c2ccccc2)c2ccccc2)NC(=O)[C@@H](CCCNC(=N)N)NC(=O)[C@@H](CCCNC(=N)N)NC1=O | Blastomyces dermatitidis | – | – | BD-3 | – | 4 (≈ 3.18 µM) |
| CC1C=CC=CC(C)C2C=CC3CC(C)(O)C(Cl)C(C)C3C2C(=O)C(Cl)(Cl)C(=O)C(C)C(=O)O1 (stereo not shown) | Staphylococcus aureus | – | – | MRSA clinical isolate | resistant: OXA,CLI,DOX,ERY,TET,TOB | 0.2 (≈ 0.376 µM) |
| N=C(N)NCCC[C@@H]1NC(=O)[C@@H](CCCNC(=N)N)NC(=O)[C@H](CCCNC(=N)N)NC(=O)[C@@H](C(c2ccccc2)c2ccccc2)NC(=O)[C@@H](C(c2ccccc2)c2ccccc2)NC(=O)[C@@H](C(c2ccccc2)c2ccccc2)NC(=O)[C@@H](CCCNC(=N)N)NC1=O | Blastomyces dermatitidis | – | – | BD-2 | – | 1 (≈ 0.772 µM) |
| CC1(C)[C@H](NC(=O)/C(=N\OCc2cc(=O)c(O)cn2O)c2csc(N)n2)C(=O)N1OS(=O)(=O)O | Serratia marcescens | – | agar dilution | ATCC 21074 susceptible | – | 0.125 (≈ 0.241 µM) |
| O=CCNCCOn1c(=O)n(OCCNCCO)c(=O)n(OCCNCCOn2c(=O)n(OCCNCCO)c(=O)n(OCCNCCO)c2=O)c1=O | Aspergillus fumigatus | – | broth microdilution | – | – | 8 ± 2 (≈ 10.4 µM) |
| C=C(NC(=O)c1csc(-c2nc3c(cc2O)-c2nc(cs2)C(=O)NC(C(C)O)C(=O)NC(=C(C)OC)c2nc(cs2)C(=O)NC2c4nc(cs4)C(=O)NC(COC(=O)c4c5c6c(cccc6n4O)COC(=O)C(OC4CC(C)(O)C(N(C)C)C(C)O4)C2OC5)c2nc-3cs2)n1)C(N)=O (stereo not shown) | Streptococcus pneumoniae | microbial growth | – | PRSP | – | 0.0039 (≈ 0.00271 µM) |
| C#CCO/N=C(\C(=O)N[C@@H]1C(=O)N(OS(=O)(=O)O)C1(C)C)c1nsc(N)n1 | Serratia marcescens | – | agar dilution | ATCC 21074, susceptible | – | 16 (≈ 38.2 µM) |
| C[C@@H]1C(=O)O[C@@H](C)/C=C/C=C\[C@@H](C)[C@@H]2C=C[C@@H]3C[C@@]4(C)O[C@H]4[C@@H](C)[C@H]3[C@@H]2C(=O)C(Cl)(Cl)C1=O | Staphylococcus aureus | – | – | MSSA clinical isolate | resistant PEN/CLI/SXT/TET | 0.05 (≈ 0.101 µM) |
| CCCC(C)Oc1cccc(NC(=O)c2cccnc2)c1 (stereo not shown) | Clavispora lusitaniae | microbial growth | broth dilution | MY1396 | – | 64 (≈ 225 µM) |
| CC1(C)[C@H](NC(=O)/C(=N\OCc2c(Cl)cccc2Cl)c2csc(N)n2)C(=O)N1OS(=O)(=O)O | Serratia marcescens | – | agar dilution | ATCC 21074, susceptible | – | 1 (≈ 1.86 µM) |
| COC1C=COC2(C)Oc3c(C)c(O)c4c(c3C2=O)C2=NC3(CCN(CC(C)C)CC3)NC2=C(NC(=O)C(C)=CC=CC(C)C(O)C(C)C(O)C(C)C(OC(=O)c2cccnc2)C1C)C4=O (stereo not shown) | Mycobacteroides abscessus | – | – | ATCC 19977 | single-strain MIC | 140 (≈ 154 µM) |
| CC1(C)[C@H](NC(=O)/C(=N\OCC(=O)N2CCC(C(=O)O)CC2)c2csc(N)n2)C(=O)N1OS(=O)(=O)O | Serratia marcescens | – | agar dilution | ATCC 21074, susceptible | – | 2 (≈ 3.65 µM) |
| Cc1c(CN(C)C(=O)/C=C/c2cnc3c(c2)CC(N)C(=O)N3)oc2ccccc12 (stereo not shown) | Klebsiella pneumoniae | – | broth microdilution | S47889 | – | 8 (≈ 20.5 µM) |

For quick reference, copied from above:
| Structure (SMILES) | organism | effect on | technique | strain | setting | MIC [µg/mL] |
| --- | --- | --- | --- | --- | --- | --- |
| CC1(C)[C@H](NC(=O)/C(=N\OCC(=O)N2CCC(C(=O)O)CC2)c2csc(N)n2)C(=O)N1OS(=O)(=O)O | Serratia marcescens | – | agar dilution | ATCC 21074, susceptible | – | 2 (≈ 3.65 µM) |
| Cc1c(CN(C)C(=O)/C=C/c2cnc3c(c2)CC(N)C(=O)N3)oc2ccccc12 (stereo not shown) | Klebsiella pneumoniae | – | broth microdilution | S47889 | – | 8 (≈ 20.5 µM) |
